Published values gathered from unrelated publications.
Each line is one published result; not all experiments were run side by side.

| Structure (SMILES) | test system | conditions | concentration |
| --- | --- | --- | --- |
| CCOC(=O)[C@@]12C[C@@H]1[C@@H](n1ccc3c(NC)nc(C#Cc4ccc(Cl)s4)nc31)[C@H](O)[C@@H]2O | male Sprague-Dawley rat, plasma | oral, 10 mg/kg, 30 min | 156 ng/mL |
| CC(C)(Nc1nc(-c2ccccn2)nc2ccccc12)c1ccccn1 | female BALB/c mouse, plasma | intravenous, 1 mg/kg, 2 h | 201 ng/mL |
| O=c1nc(N2CCN(CC3CCCCC3)CC2)sc2c([N+](=O)[O-])cc(C(F)(F)F)cc12 | CD-1 mouse, plasma | intravenous, 10 mg/kg, 2 h | 375 ng/mL |
| COc1ccc2c(=O)n(C)c(-c3ccccc3)nc2c1 | male Sprague-Dawley rat, spleen | oral, 30 mg/kg, 2 h | 2.36 ng/mL |
| O=C1CCC(N2Cc3cc(CO)c(F)cc3C2=O)C(=O)N1 (stereo not shown) | male CD-1 mouse, plasma | intravenous, 1 mg/kg, 15 min | 286 ng/mL |
| CCOC(=O)c1cc(Cl)cc(NC(=O)c2sc(Cl)cc2S(=O)(=O)N(C)c2ccc(OCC)c(OC)c2)c1 | male C57BL/6 mouse, brain | intraperitoneal, 10 mg/kg, 15 min | 10.3 ng/g |
| NCc1cc2c(cc1F)C(=O)N(C1CCC(=O)NC1=O)C2 (stereo not shown) | male cynomolgus monkey, plasma | oral, 0.3 mg/kg, 30 min | 0.82 ng/mL |
| COc1cccc(-c2n[nH]c(SCc3ccccn3)n2)c1OC | male Sprague-Dawley rat, plasma | oral, 30 mg/kg, 24 h, single dose | 8 ng/mL |
| Cc1noc(C)c1Cn1cc(N2C(=O)CN(Cc3cccc(O)c3)C2=O)cn1 | male Sprague-Dawley rat, plasma | oral, 100 mg/kg, 2 h, single dose | 28.4 ng/mL |
| CCc1cc(-c2noc(-c3cc(OC)nc(C4CCCC4)c3)n2)cc(C)c1OC[C@@H](O)CO | Wistar rat, plasma | oral, 10 mg/kg, 3 h, single dose | 1260 ng/mL |
